Measurements pooled from the literature.
Compare with care: the assays were run in different laboratories. ± gives the spread as reported.
B1: Plasminogen; sequence looked up; chain EPLDDYVNTQGASLFSVTKKQLGAGSIEECAAKCEEDEEFTCRAFQYHSKEQQCVIMAENRKSSIIIRMRDVVLFEKKVYLSECKTGNGKNYRGTMSKTKNGITCQKWSSTSPHRPRFSPATHPSEGLEENYCRNPDNDPQGPWCYTTDPEKRYDYCDILECEEECMHCSGENYDGKISKTMSGLECQAWDSQSPHAHGYIPSKFPNKNLKKNYCRNPDRELRPWCFTTDPNKRWELCDIPRCTTPPPSSGPTYQCLKGTGENYRGNVAVTVSGHTCQHWSAQTPHTHNRTPENFPCKNLDENYCRNPDGKRAPWCHTTNSQVRWEYCKIPSCDSSPVSTEQLAPTAPPELTPVVQDCYHGDGQSYRGTSSTTTTGKKCQSWSSMTPHRHQKTPENYPNAGLTMNYCRNPDADKGPWCFTTDPSVRWEYCNLKKCSGTEASVVAPPPVVLLPDVETPSEEDCMFGNGKGYRGKRATTVTGTPCQDWAAQEPHRHSIFTPETNPRAGLEKNYCRNPDGDVGGPWCYTTNPRKLYDYCDVPQCAAPSFDCGKPQVEPKKCPGRVVGGCVAHPHSWPWQVSLRTRFGMHFCGGTLISPEWVLTAAHCLEKSPRPSSYKVILGAHQEVNLEPHVQEIEVSRLFLEPTRKDIALLKLSSPAVITDKVIPACLPSPNYVVADRTECFITGWGETQGTFGAGLLKEAQLPVIENKVCNRYEFLNGRVQSTELCAGHLAGGTDSCQGDSGGPLVCFEKDKYILQGVTSWGLGCARPNKPGVYVRVSRFVTWIEGVMRNN
B2: α2-macroglobulin; sequence looked up; chain SVSGKPQYMVLVPSLLHTETTEKGCVLLSYLNETVTVSASLESVRGNRSLFTDLEAENDVLHCVAFAVPKSSSNEEVMFLTVQVKGPTQEFKKRTTVMVKNEDSLVFVQTDKSIYKPGQTVKFRVVSMDENFHPLNELIPLVYIQDPKGNRIAQWQSFQLEGGLKQFSFPLSSEPFQGSYKVVVQKKSGGRTEHPFTVEEFVLPKFEVQVTVPKIITILEEEMNVSVCGLYTYGKPVPGHVTVSICRKYSDASDCHGEDSQAFCEKFSGQLNSHGCFYQQVKTKVFQLKRKEYEMKLHTEAQIQEEGTVVELTGRQSSEITRTITKLSFVKVDSHFRQGIPFFGQVRLVDGKGVPIPNKVIFIRGNEANYYSNATTDEHGLVQFSINTTNVMGTSLTVRVNYKDRSPCYGYQWVSEEHEEAHHTAYLVFSPSKSFVHLEPMSHELPCGHTQTVQAHYILNGGTLLGLKKLSFYYLIMAKGGIVRTGTHGLLVKQEDMKGHFSISIPVKSDIAPVARLLIYAVLPTGDVIGDSAKYDVENCLANKVDLSFSPSQSLPASHAHLRVTAAPQSVCALRAVDQSVLLMKPDAELSASSVYNLLPEKDLTGFPGPLNDQDNEDCINRHNVYINGITYTPVSSTNEKDMYSFLEDMGLKAFTNSKIRKPKMCPQLQQYEMHGPEGLRVGFYESDVMGRGHARLVHVEEPHTETVRKYFPETWIWDLVVVNSAGVAEVGVTVPDTITEWKAGAFCLSEDAGLGISSTASLRAFQPFFVELTMPYSVIRGEAFTLKATVLNYLPKCIRVSVQLEASPAFLAVPVEKEQAPHCICANGRQTVSWAVTPKSLGNVNFTVSAEALESQELCGTEVPSVPEHGRKDTVIKPLLVEPEGLEKETTFNSLLCPSGGEVSEELSLKLPPNVVEESARASVSVLGDILGSAMQNTQNLLQMPYGCGEQNMVLFAPNIYVLDYLNETQQLTPEIKSKAIGYLNTGYQRQLNYKHYDGSYSTFGERYGRNQGNTWLTAFVLKTFAQARAYIFIDEAHITQALIWLSQRQKDNGCFRSSGSLLNNAIKGGVEDEVTLSAYITIALLEIPLTVTHPVVRNALFCLESAWKTAQEGDHGSHVYTKALLAYAFALAGNQDKRKEVLKSLNEEAVKKDNSVHWERPQKPKAPVGHFYEPQAPSAEVEMTSYVLLAYLTAQPAPTSEDLTSATNIVKWITKQQNAQGGFSSTQDTVVALHALSKYGAATFTRTGKAAQVTIQSSGTFSSKFQVDNNNRLLLQQVSLPELPGEYSMKVTGEGCVYLQTSLKYNILPEKEEFPFALGVQTLPQTCDEPKAHTSFQISLSVSYTGSRSASNMAIVDVKMVSGFIPLKPTVKMLERSNHVSRTEVSSNHVLIYLDKVSNQTLSLFFTVLQDVPVRDLKPAIVKVYDYYETDEFAIAEYNAPCSKDLGNA

`c1cnc2c(c1)ccc1cccnc12` gave a remaining activity of less than 1% (Staphylococcus aureus BstA; 1 mM, together with: mBCl 50 µM, BSH 50 µM).
`[Met(O)35]Aβ42` — result for “Msr activity increase”: 27 ± 11% (methionine sulfoxide reductase (rat); HPLC, dabsyl-Met(O); rat primary cortical neurons; 10 µM, 24 h; baseline: untreated cells).
With `CCN1CCN(C(=O)N[C@@H](C(=O)N[C@@H]2C(=O)N3[C@@H]2SC(C)(C)[C@@H]3C(=O)O)c2ccccc2)C(=O)C1=O` the apparent IC50 was 10 ± 13 µM (PBP5/6 Escherichia coli; Bocillin-FL binding, inhibitor; Escherichia coli, MG1655; 30 min, Tris-EDTA permeabilised, together with: Bocillin-FL 25 µM).
`CN[C@@](C)(C[18F])C(=O)O` has a tracer uptake of 3.2 %ID/g (MDA-MB-468 tumour model; host not given, lung; 15 min, tumour-bearing).
`CC(C)[C@H](NC(=O)CNC(=O)CNC(=O)CNC(=O)[C@H](CCCNC(=N)N)NC(=O)[C@H](CCCNC(=N)N)NC(=O)[C@H](CCCNC(=N)N)NC(=O)[C@H](CCC(N)=O)NC(=O)[C@H](CCCNC(=N)N)NC(=O)[C@H](CCCNC(=N)N)NC(=O)[C@H](CCCCN)NC(=O)[C@H](CCCCN)NC(=O)[C@H](CCCNC(=N)N)NC(=O)CNC(=O)[C@@H](N)Cc1ccc(O)cc1)C(=O)N[C@H](C(=O)N[C@H](C(=O)N[C@@H](C)C(=O)O)[C@@H](C)O)C(C)C`: protein interaction “inhibited” (ClpP and alpha-synuclein (human); inhibitor, co-immunoprecipitation; HEK293T cells).
Under “Msr activity decrease”, `[Met(O2)35]Aβ40` is recorded as 3 ± 4% (methionine sulfoxide reductase (rat); HPLC, dabsyl-Met(O); rat primary cortical neurons; 10 µM, 24 h; baseline: untreated cells).
For `CC(=O)C[C@@H](c1ccccc1)c1c(O)c2ccc(O)cc2oc1=O`, the Kss was 1310 µM (UGT; measured: 7-glucuronide; human liver microsomes; second binding site).
With `CC(C)(O)C(O)Cc1cc(/C=C/c2cc(O)cc(O)c2)ccc1O` (stereo not shown) the IC50 was greater than 25 µg/mL (Sp1 (human); reporter gene, inhibitor; SW1353; control transcription factor).
With `O=C(O)c1ccc(O)c(O)c1` the CD value was 4.1 µM (NAD(P)H quinone oxidoreductase, mouse; enzyme induction, inducer; Hepa-1c1c7; concentration doubling activity).
`CC(=O)NC(C)C(=O)NC(CO)C(O)c1ccc([N+](=O)[O-])cc1` (stereo not shown) gave a Kd of 55 ± 13 µM (Escherichia coli 70S ribosome; binding, fluorescence polarization; together with: BODIPY-erythromycin 4 nM).
With `CN(C)CCCn1cc(C2=C(c3c[nH]c4ccccc34)C(=O)NC2=O)c2ccccc21` the phosphorylation level was 139 ± 21% (Yes kinase, rat; CCK-stimulated phosphorylation, PKC inhibitor, measured: Yes pY416; 5 µM, 1 min, pretreatment, together with: CCK 100 nM; baseline: CCK alone).
For `Apolipoprotein B`, “apparent oxytocin concentration” read 3.5 ± 0.8 pg/mL (anti-oxytocin rabbit polyclonal IgG; cross-reactivity, oxytocin EIA, Enzo; 3 µg/mL).
With `O=CNCC(=O)NC(CO)C(O)c1ccc([N+](=O)[O-])cc1` (stereo not shown) the Kd was 45 ± 6 µM (Escherichia coli 70S ribosome; binding, fluorescence polarization; together with: BODIPY-erythromycin 4 nM).
`B1 (Plasminogen)`: “apparent oxytocin concentration” 1.6 ± 1.1 pg/mL (anti-oxytocin rabbit polyclonal IgG; cross-reactivity, oxytocin EIA, Enzo; 3 µg/mL).
With `N[C@H](Cc1c[nH]cn1)C(=O)N[C@H](CO)[C@H](O)c1ccc([N+](=O)[O-])cc1` the Kd was 2.9 ± 0.8 µM (Escherichia coli 70S ribosome; binding, fluorescence polarization; together with: BODIPY-erythromycin 4 nM).
`CC(=O)OCC[N+](C)(C)C` gave an EC50 of 0.48 ± 0.33 µM (nicotinic acetylcholine receptor, mouse; [3H]GABA release, agonist; superior colliculus synaptosomes; high-sensitivity component).
`CCCOC(=O)Cc1ccc(OCC(=O)N(CC)CC)c(OCC)c1` has an EC50 of 36 µM (GABA-A receptor rat; GABA-evoked chloride current, positive allosteric modulator, whole-cell patch clamp; embryonic rat cortical neurons; pH 7.4, holding -60 mV, together with: GABA 5 µM).
`B2 (α2-macroglobulin)`: “apparent oxytocin concentration” 2.1 ± 1.1 pg/mL (anti-oxytocin rabbit polyclonal IgG; cross-reactivity, oxytocin EIA, Enzo; 3 µg/mL).
The remaining activity of `O=C(N[C@@H](Cn1ccnc1)c1ccc(Cl)cc1Cl)c1ccc(-c2nnc(-c3ccccc3)o2)cc1` is reported as 12 ± 1.1% (Leishmania infantum CYP51; concentration not given).
For `COC(Cn1ccn2cc(C(=O)NCc3ccc(F)cc3F)c(=O)c(O)c2c1=O)OC`, the EC50 was 0.0033 ± 0.0003 µM (HIV-1 integrase wild type; viral replication; HOS, HIV-1; single-round vector).
`CCc1c(C(=O)NCCc2ccc(N3CCCCC3)cc2)[nH]c2ccc(Cl)cc12` — result for ERK1/2 phosphorylation: “no effect” (cannabinoid CB1 receptor; HEK293-A; 1 nM to 10 µM, 10 min, no orthosteric agonist).
`Fibrinogen`: “apparent oxytocin concentration” 5.5 ± 4.5 pg/mL (anti-oxytocin rabbit polyclonal IgG; cross-reactivity, oxytocin EIA, Enzo; 3 µg/mL).
For `anthraquinone-neomycin`, the Tm was 64 °C (poly(dA)•2poly(dT) triplex; triplex to duplex melting, UV thermal denaturation; concentration not given, pH 5.5, KCl 150 mM).
With `CC[C@@]1(O)C[C@H](O[C@H]2C[C@H](N(C)C)[C@H](O)[C@H](C)O2)c2c(cc3c(c2O)C(=O)c2c(O)cccc2C3=O)[C@H]1C(=O)OC` the maximal ΔTm was -17.1 °C (pre-miR-21 RNA; differential scanning fluorimetry; baseline: untreated, positive = stabilisation).
`C[C@@H](O)[C@H]1C(=O)N2C(C(=O)O)=C(S[C@@H]3CN[C@H](C(=O)N(C)C)C3)[C@H](C)[C@H]12` gave an apparent IC50 of 5.1 ± 2.7 µM (PBP5/6 Escherichia coli; Bocillin-FL binding, inhibitor; Escherichia coli, MG1655; 30 min, Tris-EDTA permeabilised, together with: Bocillin-FL 25 µM).
For `CC(=O)NC(CCCNC(=N)N)C(=O)NC(CO)C(O)c1ccc([N+](=O)[O-])cc1` (stereo not shown), the Kd was 26 ± 10 µM (Escherichia coli 70S ribosome; binding, fluorescence polarization; together with: BODIPY-erythromycin 4 nM).
`myricitrin` has an IC50 of 25 µM (class I HDAC (bovine); enzyme activity, inhibitor; bovine heart tissue lysate).
`Apolipoprotein A-I`: “apparent oxytocin concentration” 3.3 ± 2.4 pg/mL (anti-oxytocin rabbit polyclonal IgG; cross-reactivity, oxytocin EIA, Enzo; 3 µg/mL).
The IC50 of `COc1ccc(/C=C/c2cc(O)cc(O[C@@H]3O[C@H](CO)[C@@H](O)[C@H](O)[C@H]3O)c2)cc1O` is reported as greater than 25 µg/mL (Sp1 (human); reporter gene, inhibitor; SW1353; control transcription factor).
The Kd of `O=C(NC(CO)C(O)c1ccc([N+](=O)[O-])cc1)C1CCCN1` (stereo not shown) is reported as 7.5 ± 1.6 µM (Escherichia coli 70S ribosome; binding, fluorescence polarization; together with: BODIPY-erythromycin 4 nM).
For `Aprotinin`, “apparent oxytocin concentration” read 0.9 ± 0.4 pg/mL (anti-oxytocin rabbit polyclonal IgG; cross-reactivity, oxytocin EIA, Enzo; 3 µg/mL).
With `FFNFFKG` the recovery yield was 72.4% (adeno-associated virus 9; capsid binding, bind-and-elute chromatography; peptide; peptide ligand resin, MgCl2 elution).
The Kd of `NC(Cc1ccccc1)C(=O)NC(CO)C(O)c1ccc([N+](=O)[O-])cc1` (stereo not shown) is reported as 19 ± 8 µM (Escherichia coli 70S ribosome; binding, fluorescence polarization; together with: BODIPY-erythromycin 4 nM).
With `COC(CN1CCn2cc(C(=O)NCc3ccc(F)cc3F)c(=O)c(O)c2C1=O)OC` the EC50 was 0.0065 ± 0.0009 µM (HIV-1 integrase wild type; viral replication; HOS, HIV-1; single-round vector).

Excerpt of the above:
The IC50 of `COc1ccc(/C=C/c2cc(O)cc(O[C@@H]3O[C@H](CO)[C@@H](O)[C@H](O)[C@H]3O)c2)cc1O` is reported as greater than 25 µg/mL (Sp1 (human); reporter gene, inhibitor; SW1353; control transcription factor).
With `CC(C)(O)C(O)Cc1cc(/C=C/c2cc(O)cc(O)c2)ccc1O` (stereo not shown) the IC50 was greater than 25 µg/mL (Sp1 (human); reporter gene, inhibitor; SW1353; control transcription factor).
For `CC(=O)NC(CCCNC(=N)N)C(=O)NC(CO)C(O)c1ccc([N+](=O)[O-])cc1` (stereo not shown), the Kd was 26 ± 10 µM (Escherichia coli 70S ribosome; binding, fluorescence polarization; together with: BODIPY-erythromycin 4 nM).
